Assay results gathered from unrelated publications.
Each line is one published result; not all experiments were run side by side. ± marks the error that the study gave.

The growth percent of COc1cc(CNC(=O)C[C@H](C)CCC=C(C)C)ccc1OCc1cn(-c2ccc(F)cc2)nn1 is reported as 102% (M14 melanoma cells; SRB; 10 µM, 48 h).
With CCC12CCc3c(c4ccccc4n3C)CCN(CC3OC31)C2 (centres unmarked) the inhibition was 52.1 ± 0.1% (BV-2; NO production; 6 µM, 1 h, 24 h stimulation, with: LPS 800 ng/mL; reference: LPS control).
CCCC(CCC)C(=O)[O][Pt]([NH2])([NH2])([Cl])([Cl])[O]C(=O)c1ccccc1OC(C)=O gave a selectivity index of 4.5 (HEK293 and PSN1; cytotoxicity, MTT; reference: IC50 HEK293 over IC50 PSN1).
With CC(C)=CCC1=C([O-])C(=O)c2ccccc2C1=O.CC(C)=CCC1=C([O-])C(=O)c2ccccc2C1=O.Cc1cc2cccnc2c2ncccc12.O.[Cu+2] the intracellular copper was ~4 fold (A2780; ICP-MS; concentration not given, 24 h; reference: untreated).
CCOP(=O)(CC(=O)Nc1ccc(S(=O)(=O)N(CC(N)=O)c2ccc(N(CC(N)=O)S(=O)(=O)c3ccc(OC)cc3)c3ccccc23)cc1)OCC: protein expression “increased” (mouse primary cortical neurons; western blot, measured: NDP52; 20 µM, with: amyloid beta).
COc1cc(CNC(=O)C[C@H](C)CCC=C(C)C)ccc1OCc1cn(-c2cccc(Cl)c2)nn1 gave a growth percent of 67.9% (SNB-19 CNS cancer cells; SRB; 10 µM, 48 h).
COc1ccc([C@@H]2CC(=O)c3c(O)cc(O[C@@H]4O[C@H](CO[C@@H]5O[C@@H](C)[C@H](O)[C@@H](O)[C@H]5O)[C@@H](O[C@H]5O[C@H](CO)[C@@H](O)[C@H](O)[C@H]5O)[C@H](O)[C@H]4O)cc3O2)cc1O gave a gap closure of 0% (A549; cell migration, scratch; 50 µg/mL, 0 h).
C=CC(=O)Nc1cc(-c2nn(C3CCN(CCNC(=O)[C@H](C)CCC45CC6CC(CC(C6)C4)C5)CC3)c3ncnc(N)c23)ccc1Oc1ccccc1 has a potency ratio of ~7 fold (PC-9 GR4; cell growth, CellTiter-Glo; reference: propionamide control over compound EC50).
Under sphingomyelin level, CCCCCCCCCn1cc(C(N)(CO)CO)nn1 is recorded as “no effect” (Alzheimer's disease patient iPSC-derived neurons; 10 µM).
N#Cc1cc(C(=O)OCC[18F])c(C(F)(F)F)nc1N1CCC(C(=O)NS(=O)(=O)c2ccc(Cl)s2)CC1 — result for cellular uptake: “decreased” (C6 P2Y12-positive; with: excess clopidogrel; reference: unblocked).
For CCN(CC)CCCNC(=O)CSc1c2c(nc3cc(Cl)ccc13)CCCC2, the Emax was 63% (LDR; silenced GFP reporter derepression, microscopy; overnight; reference: sodium butyrate).
The colony formation of COc1ccc(CC2COC(=O)C2Cc2ccc3c(c2)OCO3)cc1OC (mixture of isomers) is reported as ~80% (A2780; IC50, 72 h).
Under “time to signal rebound”, Cc1ncsc1-c1ccc([C@H](C)NC(=O)[C@@H]2C[C@@H](O)CN2C(=O)[C@@H](NC(=O)[C@H]2C[C@H](C(=O)N3CCC(c4cc(Nc5cc(C#N)ccn5)nc(N5CCC(F)(F)C5)c4)CC3)C2)C(C)(C)C)cc1 is recorded as 24 h (CAL-33 (dox-induced wild-type LZK); western blot, measured: phospho-JNK; concentration not given, despite LZK loss).
For COC(=O)C(C)NC(=O)/C=C/C=C/c1ccc2c(c1)OCO2 (centres unmarked), the mRNA level was 11.8 fold (HL-7702 (L-02) hepatocytes; RT-qPCR, measured: PPARγ; 100 µM; reference: untreated).
Under phospho-p38 level, C#CCN(CC(=O)O[C@H]1[C@H](C)O[C@@H](O[C@H]2[C@H](N(C)C)[C@@H](O)[C@H](O[C@H]3[C@@H](CC=O)C[C@@H](C)[C@@H](O[C@H]4CC[C@H](N(C)C)[C@@H](C)O4)/C=C/C=C/C[C@@H](C)OC(=O)C[C@@H](O)[C@@H]3OC)O[C@@H]2C)C[C@@]1(C)O)C(=O)c1ccc(C(F)(F)F)cc1 is recorded as “increased” (HGC-27; Western blot; 0.10, 0.45, 0.90 µM, 24 h).
The proliferation of CC1=CCC23OC2(C)CCC2C(CN(C)C)C(=O)OC2C13.Cl (centres unmarked) is reported as 4.96 ± 2.17% (C6 rat glioma cells; 20 mg/mL, clonogenic; reference: control).
With C=CCOC(=O)C1C(C=O)=Cc2cc3c(cc2C1c1cc(OC)c(OC)c(OC)c1)OCO3 (centres unmarked) the selectivity index was > 3.3 (uninfected mouse splenocytes; reference: splenocyte CC50 over amastigote EC50).
CCCCN1C(=O)c2cccc3c(NCCCCCCCCCCN4CCOCC4)ccc(c23)C1=O has an emission maximum of ~536 nm (BHK-21; confocal lambda scanning; endoplasmic reticulum).
The GI50 of CCC(=C(c1ccc(Cl)cc1)c1ccc(OCCCN(C)C)cc1)c1ccc(OC)cc1 is reported as 1880 nM (SNB-19; cell growth or viability, SRB).
For CCCC(=O)N1CCN(c2ccc(NC(=O)c3ccc([N+](=O)[O-])o3)cc2Cl)CC1, the EC50 was 1000 nM (LDR; silenced GFP reporter derepression, microscopy; overnight).
Cc1c(C)n(-c2c(C(C)C)cccc2C(C)C)c(=[Se])n1-c1c(C(C)C)cccc1C(C)C.[Cl][Au] has a resistance factor of 0.9 (LoVo-OXP colon cancer cells; MTT; reference: LoVo-OXP over LoVo IC50).
With Oc1ccccc1-c1nn(-c2ccccn2)[n+](-c2ccccc2)n1.[Br-] the dead cells was 6.2% (A2780; LIVE/DEAD flow cytometry; 40 µM, 48 h, with: holo-transferrin 50 µM).
COc1cc(CNC(=O)C[C@H](C)CCC=C(C)C)ccc1OCc1cn(-c2cccc([N+](=O)[O-])c2)nn1 has a growth percent of 77.1% (BT-549 breast cancer cells; SRB; 10 µM, 48 h).
C[C@@H](O)[C@H](NC(=O)[C@@H]1CSSC[C@H](NC(=O)[C@@H](Cc2ccccc2)NC(=O)CN2CCN(CC(N)=O)CCN(CC(N)=O)CCN(CC(N)=O)CC2)C(=O)N[C@@H](Cc2ccc(O)cc2)C(=O)N[C@H](Cc2c[nH]c3ccccc23)C(=O)N[C@@H](CCCCN)C(=O)N[C@@H]([C@@H](C)O)C(=O)N1)C(=O)O [lead-212 labelled] — result for “concentration for complete cell death”: 800 nCi/mL (AR-42J; fluorescein diacetate; concentration not given, 4 h exposure, 4 days).
For Nc1cccc(S(=O)(=O)N2CCCN(S(=O)(=O)c3ccc4c(c3)OCCO4)CC2)c1, glucose consumption read “no effect” (H1299; concentration not given).
C=C(CC)C(=O)c1ccc(OCC(=O)NCCCCNC(=O)COc2ccc(C(=O)C(=C)CC)c(Cl)c2Cl)c(Cl)c1Cl — result for “sensitisation to cisplatin”: ~5 fold (CoC1/DDP cisplatin-resistant; cell growth, CCK-8; 0.2 µM, with: cisplatin).
Under “internalized fraction of cell activity”, C[C@@H](O)[C@@H]1NC(=O)[C@H](CCCCN)NC(=O)[C@@H](Cc2ccc(NC(N)=O)cc2)NC(=O)[C@H](Cc2ccc(NC(=O)[C@@H]3CC(=O)NC(=O)N3)cc2)NC(=O)[C@H](NC(=O)[C@H](Cc2ccc(Cl)cc2)NC(=O)CN2CCN(CC(=O)O)CCN(CC(=O)O)CCN(CC(=O)O)CC2)CSSC[C@@H](C(=O)N[C@H](Cc2ccc(O)cc2)C(N)=O)NC1=O is recorded as 20.9 ± 0.59% (AR-42J; radioligand uptake; concentration not given, 2 h).
C#CCOc1ccc(C(=O)c2ccc(NC(=O)C(=O)NCCc3ccc(OC)cc3)cc2)cc1 — result for cytotoxicity: “toxic” (H1155 expressing CYP4F11; concentration not given, ectopic CYP4F11 expression).
For N[C@@H](CCC(=O)N[C@@H](CS[Se]Cc1ccc(-c2cc(C(F)(F)F)nn2-c2ccc(S(N)(=O)=O)cc2)cc1)C(=O)NCC(=O)O)C(=O)O, the selectivity ratio was 5 fold (melanoma cells; reference: normal cells over cancer cells).
For O=C1c2cccc3cccc(c23)C12NC(Cc1ccc(O)cc1)C([N+](=O)[O-])C2c1ccccc1 (centres unmarked), “late apoptotic cells” read 27% (Jurkat; annexin V-FITC/PI flow cytometry; IC50, 24 h).
The growth percent of COc1cc(CNC(=O)C[C@H](C)CCC=C(C)C)ccc1O is reported as 95.5% (BT-549 breast cancer cells; SRB; 10 µM, 48 h).
Cc1ccc(C(C)C)cc1.[Cl-].[Cl][Ru+].[Ru+].c1ccc(-c2cn(CCCCOc3ccccc3-c3nc4ccccc4s3)nn2)nc1: “cells in phase” 71.2% (MCF7; PI flow cytometry, measured: G0/G1 phase; 4 µM, 24 h).
For CCN(CC)CC(=O)Nc1cccc(-n2cc(-c3ccc4ccc(-c5cn(-c6cccc(NC(=O)CN(CC)CC)c6)nn5)cc4c3)nn2)c1, “HRE reporter activity decrease” read 25% (RCC4; luciferase reporter; 10 x IC50, normoxia).
O=Cc1c(O)ccc2ccccc12 — result for “log2 fold change”: -3.48 (HUVEC; RNA sequencing, measured: E2F1; 75 µM, 24 h; reference: DMSO).
CC(=O)OC[C@H]1O[C@@H](Sc2sc(C(=O)c3ccc(Br)cc3)c(N)c2-c2nc3ccccc3s2)[C@H](OC(C)=O)[C@@H](OC(C)=O)[C@@H]1OC(C)=O has a growth of 60.9% (SF-268; SRB; 10 µM, 48 h; reference: untreated).
The inhibition of Cc1noc(NS(=O)(=O)c2ccc(NC(=O)c3cc(-c4cccc(Cl)c4)nc4ccccc34)cc2)c1C is reported as 29.8 ± 5% (mouse spleen cells; cell proliferation, MTT; 10 µM, 72 h, with: concanavalin A 5 µg/mL).
With [Cl][Au].[Se]=c1n(C23CC4CC(CC(C4)C2)C3)ccn1C12CC3CC(CC(C3)C1)C2 the resistance factor was 1.4 (LoVo-OXP colon cancer cells; MTT; reference: LoVo-OXP over LoVo IC50).
For Cc1ccc(C(C)C)cc1.[Cl-].[Cl-].[Ru+2].c1ccc(P(=Nc2cccc3cccnc23)(c2ccccc2)c2ccccc2)cc1, “annexin V positive cells” read 28% (Jurkat; concentration not given, 24 h).
The Emax of CC1=C/C(=N\N=C(/S)Nc2cccnc2)CC(C)(C)C1 is reported as 95% (LDR; silenced GFP reporter derepression, microscopy; overnight; reference: sodium butyrate).
O=C1OCC2=C1C(c1cccc(Br)c1)C1=C(N2)C(=O)c2ccccc2C1=O (centres unmarked) — result for “cells in G0/G1 phase”: 55.5% (SK-LU-1 cells; PI flow cytometry; 0.08 µM, 24 h).
With Fc1cccc(CNc2nc(NCc3ccccc3)c3ccccc3n2)c1 the GI50 was 2600 nM (SW-403; cell growth or viability; 72 h).

Repeated from above:
N#Cc1cc(C(=O)OCC[18F])c(C(F)(F)F)nc1N1CCC(C(=O)NS(=O)(=O)c2ccc(Cl)s2)CC1 — result for cellular uptake: “decreased” (C6 P2Y12-positive; with: excess clopidogrel; reference: unblocked).
For CCN(CC)CCCNC(=O)CSc1c2c(nc3cc(Cl)ccc13)CCCC2, the Emax was 63% (LDR; silenced GFP reporter derepression, microscopy; overnight; reference: sodium butyrate).
The colony formation of COc1ccc(CC2COC(=O)C2Cc2ccc3c(c2)OCO3)cc1OC (mixture of isomers) is reported as ~80% (A2780; IC50, 72 h).
Under “time to signal rebound”, Cc1ncsc1-c1ccc([C@H](C)NC(=O)[C@@H]2C[C@@H](O)CN2C(=O)[C@@H](NC(=O)[C@H]2C[C@H](C(=O)N3CCC(c4cc(Nc5cc(C#N)ccn5)nc(N5CCC(F)(F)C5)c4)CC3)C2)C(C)(C)C)cc1 is recorded as 24 h (CAL-33 (dox-induced wild-type LZK); western blot, measured: phospho-JNK; concentration not given, despite LZK loss).
For COC(=O)C(C)NC(=O)/C=C/C=C/c1ccc2c(c1)OCO2 (centres unmarked), the mRNA level was 11.8 fold (HL-7702 (L-02) hepatocytes; RT-qPCR, measured: PPARγ; 100 µM; reference: untreated).
Under phospho-p38 level, C#CCN(CC(=O)O[C@H]1[C@H](C)O[C@@H](O[C@H]2[C@H](N(C)C)[C@@H](O)[C@H](O[C@H]3[C@@H](CC=O)C[C@@H](C)[C@@H](O[C@H]4CC[C@H](N(C)C)[C@@H](C)O4)/C=C/C=C/C[C@@H](C)OC(=O)C[C@@H](O)[C@@H]3OC)O[C@@H]2C)C[C@@]1(C)O)C(=O)c1ccc(C(F)(F)F)cc1 is recorded as “increased” (HGC-27; Western blot; 0.10, 0.45, 0.90 µM, 24 h).
